{"data": "Results pooled from the literature", "note": "Parts stem from different laboratories: compare values within a part only. Changes are numbered by the printed parent chain."}
{"data": "Set 1", "target": "ABI1, truncated, D143A, DHFR fusion (Arabidopsis thaliana)", "technique": "DHFR PCA, deep sequencing", "matrix": "yeast", "notes": "methotrexate growth selection, single substitutions", "together with": "(+)-ABA 58 µM", "relative to": "wild-type fitted maximum", "direction": "higher = stronger binding", "starting sequence": "PYL1, truncated, DHFR fusion (Arabidopsis thaliana); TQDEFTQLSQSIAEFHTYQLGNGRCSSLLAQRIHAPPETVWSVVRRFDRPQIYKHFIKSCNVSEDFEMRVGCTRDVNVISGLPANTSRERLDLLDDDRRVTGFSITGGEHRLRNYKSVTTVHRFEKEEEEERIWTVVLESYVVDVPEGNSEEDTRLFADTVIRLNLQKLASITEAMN"}
{"Variant": "R46S", "relative binding score [%]": 75.2}
{"Variant": "F124W", "relative binding score [%]": 89.4}
{"Variant": "D65K", "relative binding score [%]": 88.2}
{"Variant": "V137M", "relative binding score [%]": 21.2}
{"Variant": "I105Q", "relative binding score [%]": -4.25}
{"Variant": "T160Q", "relative binding score [%]": 60.1}
{"Variant": "L28D", "relative binding score [%]": 5.55}
{"Variant": "E131N", "relative binding score [%]": 104}
{"Variant": "V137L", "relative binding score [%]": 42.1}
{"data": "Set 2", "target": "Interferon regulatory factor 5, full length, phosphomimetic (IRF5, Homo sapiens, UniProt Q13568-2, residues 1-514, K96S/S451D/S453D/S456D/S462D)", "technique": "protein-binding microarray", "molecule type": "double-stranded DNA, one strand shown", "matrix": "in vitro", "tested at": "250 nM", "notes": "60-bp whole probe", "together with": "salmon DNA 0.4 mg/ml", "relative to": "random background probes", "direction": "higher = stronger binding", "shared flanks, not repeated": "GCCTAGCAC … GTCTTGATTCGCTTGACGCTGCTG"}
{"Sequence": "GACGGTTCCGGTTTCGTGACGTGCTAG", "log fluorescence": "2.08 z-score"}
{"Sequence": "AGAATTTTCATTAACTGTTAGTGCTAG", "log fluorescence": "1.93 z-score"}
{"Sequence": "TTAGATCTCAGTCTCGAGTAGTGCTAG", "log fluorescence": "0.272 z-score"}
{"Sequence": "TTCCCAATGGTCTTTCCACTTGTGCTA", "log fluorescence": "0.118 z-score"}
{"Sequence": "TCAGTTTCACTTTCCAAACTGTGCTAG", "log fluorescence": "9.72 z-score"}
{"Sequence": "TAGCATGTAATTTGTTTGCAGTGCTAG", "log fluorescence": "0.273 z-score"}
{"Sequence": "GTGGCAGGCCCTCGGGCTCCGTGCTAG", "log fluorescence": "-1.14 z-score"}
{"Sequence": "GACGGACTGCTACTGCGGACGTGCTAG", "log fluorescence": "-0.723 z-score"}
{"Sequence": "GACGAGATCGGGTTTCGAGACGTGCTA", "log fluorescence": "1.67 z-score"}
{"Sequence": "TCACATTTTTTTTTTCTACTGTGCTAG", "log fluorescence": "1.35 z-score"}
{"Sequence": "TTAGGTATCGACTATCGGTGAGTGCTA", "log fluorescence": "6.67 z-score"}
{"Sequence": "GACGTTATCAGTTTCGAGACGTGCTAG", "log fluorescence": "6.27 z-score"}
{"Sequence": "GACGGTATCCGGACTGGGGACGTGCTA", "log fluorescence": "-0.107 z-score"}
{"Sequence": "CACGATTCCAGTTTCGAGACGTGCTAG", "log fluorescence": "5.25 z-score"}
{"Sequence": "GACGATTCCTGTTTCGAGACGTGCTAG", "log fluorescence": "3.17 z-score"}
{"Sequence": "GTCTTTGCAAAAGCTCCACCGTGCTAG", "log fluorescence": "-0.293 z-score"}
{"data": "Set 3", "target": "Sal-like protein 4, full length isoform A (SALL4, Homo sapiens, UniProt Q9UJQ4, residues 1-1053)", "technique": "universal PBM", "molecule type": "double-stranded DNA, one strand shown", "matrix": "in vitro", "tested at": "600 nM", "notes": "8-mer, flanks averaged, mean of replicates", "direction": "higher = stronger binding", "chain of UniProt Q9UJQ4 (whole entry, looked up)": "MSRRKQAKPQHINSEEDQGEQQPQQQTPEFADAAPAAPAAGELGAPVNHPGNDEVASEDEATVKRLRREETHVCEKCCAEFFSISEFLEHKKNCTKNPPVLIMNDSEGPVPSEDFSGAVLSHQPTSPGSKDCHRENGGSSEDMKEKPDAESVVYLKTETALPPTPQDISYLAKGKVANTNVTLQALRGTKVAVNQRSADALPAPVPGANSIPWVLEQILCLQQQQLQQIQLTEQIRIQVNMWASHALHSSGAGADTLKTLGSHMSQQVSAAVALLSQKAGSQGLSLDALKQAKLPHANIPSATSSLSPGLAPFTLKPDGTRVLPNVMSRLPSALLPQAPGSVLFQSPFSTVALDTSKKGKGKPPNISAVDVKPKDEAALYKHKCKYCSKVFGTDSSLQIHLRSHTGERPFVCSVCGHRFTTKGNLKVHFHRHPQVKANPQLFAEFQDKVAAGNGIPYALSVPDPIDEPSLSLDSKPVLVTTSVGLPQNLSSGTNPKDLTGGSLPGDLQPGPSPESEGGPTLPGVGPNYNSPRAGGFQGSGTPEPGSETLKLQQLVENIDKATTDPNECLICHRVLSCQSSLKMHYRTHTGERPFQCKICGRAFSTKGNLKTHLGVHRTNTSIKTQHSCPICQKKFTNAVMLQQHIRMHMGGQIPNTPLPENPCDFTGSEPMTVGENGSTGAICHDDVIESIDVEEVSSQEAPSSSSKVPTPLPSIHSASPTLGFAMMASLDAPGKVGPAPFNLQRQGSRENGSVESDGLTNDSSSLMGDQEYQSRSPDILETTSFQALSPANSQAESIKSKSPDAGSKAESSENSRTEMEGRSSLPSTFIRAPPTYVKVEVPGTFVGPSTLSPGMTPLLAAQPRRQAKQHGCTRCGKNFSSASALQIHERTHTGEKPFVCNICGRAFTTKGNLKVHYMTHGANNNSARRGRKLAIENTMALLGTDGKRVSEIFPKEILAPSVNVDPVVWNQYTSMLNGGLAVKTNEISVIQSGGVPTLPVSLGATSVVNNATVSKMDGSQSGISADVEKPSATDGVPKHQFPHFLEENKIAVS"}
{"Sequence": "AGCGGAGC", "E-score": -0.239}
{"Sequence": "AGCTCGGG", "E-score": -0.291}
{"Sequence": "CTAGGTTA", "E-score": 0.167}
{"Sequence": "CTGTCGAA", "E-score": -0.0327}
{"Sequence": "CCCGCACC", "E-score": -0.337}
{"Sequence": "GCTTAATA", "E-score": 0.255}
{"Sequence": "GAGCCGCC", "E-score": -0.331}
{"Sequence": "ACGGACAA", "E-score": -0.0372}
{"Sequence": "CGGTTAAA", "E-score": 0.0393}
{"Sequence": "TGTTCTAA", "E-score": 0.284}
{"Sequence": "ATGTTATC", "E-score": 0.186}
{"Sequence": "AACAGGAG", "E-score": -0.00449}
{"Sequence": "CTTCTAGC", "E-score": -0.215}
{"data": "Set 4", "target": "Prothrombin, mature alpha-thrombin (F2, Homo sapiens, UniProt P00734)", "technique": "aptamer microarray, sandwich", "molecule type": "DNA with 2'F-ANA", "matrix": "in vitro", "tested at": "200 nM", "notes": "whole 15-mer aptamer, many near background", "together with": "Cy3 exosite-II aptamer, 400 nM", "direction": "higher = stronger binding", "sequence": "GGTTGGTGTGGTTGG"}
{"Modification": "2'F-ANA at 2 3 6 7 11 12 14", "mean fluorescence intensity": "381 a.u."}
{"Modification": "2'F-ANA at 4 5 7 8 12 13 14", "mean fluorescence intensity": "45.1 a.u."}
{"Modification": "2'F-ANA at 1 2 4 5 8 11", "mean fluorescence intensity": "50.5 a.u."}
{"Modification": "2'F-ANA at 1 3 5 8 9 12 15", "mean fluorescence intensity": "153 a.u."}
{"Modification": "2'F-ANA at 5 6 9 10 14", "mean fluorescence intensity": "44.9 a.u."}
{"Modification": "2'F-ANA at 2 5 6 8 9 10 11 12 15", "mean fluorescence intensity": "48.5 a.u."}
{"Modification": "2'F-ANA at 1 4 5 7 8 10 11 13 14", "mean fluorescence intensity": "46.7 a.u."}
{"Modification": "2'F-ANA at 3 4 5 6 7 8 9 10 11 14 15", "mean fluorescence intensity": "52.7 a.u."}
{"Modification": "2'F-ANA at 1 2 3 6 7 9 12 13", "mean fluorescence intensity": "287 a.u."}
{"Modification": "2'F-ANA at 2 3 4 7 8 10 13 14", "mean fluorescence intensity": "204 a.u."}
{"Modification": "2'F-ANA at 1 6 9 10 11 13 15", "mean fluorescence intensity": "56 a.u."}
{"Modification": "2'F-ANA at 2 3 6 7 8 10 13 14", "mean fluorescence intensity": "278 a.u."}
{"Modification": "2'F-ANA at 3 6 8 9 13 14 15", "mean fluorescence intensity": "473 a.u."}
{"Modification": "2'F-ANA at 2 3 7 8 12 14 15", "mean fluorescence intensity": "543 a.u."}
{"Modification": "2'F-ANA at 1 3 5 9 10 11 12 13", "mean fluorescence intensity": "48.7 a.u."}
{"data": "Set 5", "target": "Ras GTPase-activating protein-binding protein 1, full length (G3BP1, Homo sapiens, UniProt Q13283)", "technique": "RNA Bind-n-Seq", "molecule type": "RNA", "matrix": "in vitro", "tested at": "200 nM", "notes": "whole 134-nt RNA, ends assumed", "together with": "150 mM LiCl", "relative to": "input library", "direction": "higher = stronger binding", "library": "7-deaza-guanosine replaces G", "chain of UniProt Q13283 (whole entry, looked up)": "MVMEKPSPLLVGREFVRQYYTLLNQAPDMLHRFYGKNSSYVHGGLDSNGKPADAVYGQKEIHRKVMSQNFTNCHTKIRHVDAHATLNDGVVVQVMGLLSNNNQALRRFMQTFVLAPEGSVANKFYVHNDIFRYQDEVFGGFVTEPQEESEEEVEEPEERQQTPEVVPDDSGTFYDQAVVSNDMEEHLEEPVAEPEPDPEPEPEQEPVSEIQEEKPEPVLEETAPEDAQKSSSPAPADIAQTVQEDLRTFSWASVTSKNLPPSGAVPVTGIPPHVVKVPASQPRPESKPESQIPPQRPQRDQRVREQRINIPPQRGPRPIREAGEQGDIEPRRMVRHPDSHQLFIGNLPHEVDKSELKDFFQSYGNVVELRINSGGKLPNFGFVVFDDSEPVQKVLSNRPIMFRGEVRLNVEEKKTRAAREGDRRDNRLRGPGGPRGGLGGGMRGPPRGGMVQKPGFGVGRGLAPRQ"}
{"Sequence": "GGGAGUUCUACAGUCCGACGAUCUCCUGUGCUACACAUCGUAUGUACCGAAUCGGGAAAAAAGGAAAAAAGGGAAAAAAGGGAAAGUAUUAUGUUACGCCGUUCGGAUCUGCAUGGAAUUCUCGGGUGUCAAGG", "log2 enrichment": 0.127}
{"Sequence": "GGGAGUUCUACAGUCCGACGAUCAAGUCCUGUGCUACACAUCGUAUGUACCGAAUCGGGAAAGGGUGGGAAAAAAAGGGAAAGUAUUAUGUUACGCCGUUCGGAUCUGCACUUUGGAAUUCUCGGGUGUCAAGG", "log2 enrichment": -0.364}
{"Sequence": "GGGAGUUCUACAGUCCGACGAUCGCAGGAAGUAAAAACAAAUGGAAAUGCUUCGGAUAGUGGCAGGGGUGGGGGUUGCUAAGGAAAAAAUGGGAUGGGAGUGGGUAAAGAGUUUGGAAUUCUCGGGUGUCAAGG", "log2 enrichment": 0.424}
{"Sequence": "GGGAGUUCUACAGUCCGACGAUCCCUGUGCUACACAUCGUAUGUACCGAAUCGGGGAAAAAAGGAAAAAAGGGGAAAAAAGGGGAAAGUAUUAUGUUACGCCGUUCGGAUCUGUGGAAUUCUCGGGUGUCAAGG", "log2 enrichment": 0.705}
{"Sequence": "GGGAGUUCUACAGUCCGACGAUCAAGUCCUGUGCUACACAUCGUAUGUACCGAAUCGGGAAAGGGAAAAAGGGUUUGGGAAAGUAUUAUGUUACGCCGUUCGGAUCUGCACUUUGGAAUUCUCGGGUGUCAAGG", "log2 enrichment": -1.84}
{"Sequence": "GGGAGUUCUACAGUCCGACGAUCCCUGUGCUACACAUCGUAUGUACCGAAUCGGGGCCCCCCGGGGCCCCCCGGCCCCCCGGGGAAAGUAUUAUGUUACGCCGUUCGGAUCUGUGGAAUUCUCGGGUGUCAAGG", "log2 enrichment": -1.45}
{"Sequence": "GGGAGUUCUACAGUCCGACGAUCGCAGGAAGUAAAAACAAAUGGAAAUGCUUGGGAUAGUGGCAGGGGUGGGGGUUGCUAAGGAAAGGGUGGGAUGGGAGUGGGUAAAGAGUUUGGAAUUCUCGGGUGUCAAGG", "log2 enrichment": 0.241}
{"data": "Set 6", "target": "CCNA1, cyclin fold, Cln2 fusion (human)", "technique": "yeast growth competition, sequencing", "matrix": "yeast", "notes": "weak parent motif", "relative to": "not given", "direction": "higher = stronger binding", "starting sequence": "CDC25A docking peptide (human); PPHRRRLLFACSP; partner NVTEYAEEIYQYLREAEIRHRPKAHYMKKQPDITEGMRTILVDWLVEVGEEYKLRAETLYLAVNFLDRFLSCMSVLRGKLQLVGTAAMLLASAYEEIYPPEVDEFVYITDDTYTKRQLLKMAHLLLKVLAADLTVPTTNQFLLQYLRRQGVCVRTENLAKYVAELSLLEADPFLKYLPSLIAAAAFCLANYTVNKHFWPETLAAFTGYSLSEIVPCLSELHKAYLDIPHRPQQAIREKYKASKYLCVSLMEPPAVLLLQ"}
{"Variant": "PPHRRRLLFAFSP [C11F]", "normalised enrichment score": 0.283}
{"Variant": "PPHRRRLLVACSP [F9V]", "normalised enrichment score": 0.255}
{"Variant": "PPHRRRWLFACSP [L7W]", "normalised enrichment score": 0.165}
{"Variant": "PPKRRRLLFACSP [H3K]", "normalised enrichment score": -0.204}
{"Variant": "PPHRRRQLFACSP [L7Q]", "normalised enrichment score": 0.291}
{"Variant": "PPHRRRLLSACSP [F9S]", "normalised enrichment score": 0.529}
{"Variant": "PPHRRRLSFACSP [L8S]", "normalised enrichment score": 0.0813}
{"Variant": "PPHRRRLLFACAP [S12A]", "normalised enrichment score": 0.158}
{"Variant": "PPHRRRLLFALSP [C11L]", "normalised enrichment score": 0.293}
{"Variant": "PPHRRRLLFWCSP [A10W]", "normalised enrichment score": 0.372}
{"data": "Mixed results", "cell line": "HuT78", "tested at": "concentration not given", "notes": "unit not given", "relative to": "untreated control"}
{"Substance": "capivasertib", "viability": 1.02}
{"Substance": "NVP-AEW541", "viability": 1.12}
{"note": "Repeated from above (set 1):"}
{"Variant": "D65K", "relative binding score [%]": 88.2}
{"Variant": "V137M", "relative binding score [%]": 21.2}
{"Variant": "I105Q", "relative binding score [%]": -4.25}
{"Variant": "T160Q", "relative binding score [%]": 60.1}
{"Variant": "L28D", "relative binding score [%]": 5.55}
{"Variant": "E131N", "relative binding score [%]": 104}
{"Variant": "V137L", "relative binding score [%]": 42.1}
